Measured values pooled from the literature.
Numbered parts are unrelated; each lists some results of a single study.

Series 1 — method: RNA Bind-n-Seq; form: RNA; sample: in vitro; tested at: not given; relative to: input RNA pool; direction: higher = stronger binding
Target: RING finger protein unkempt homolog, zinc fingers 1-6, GST-SBP tag (UNK, Homo sapiens, UniProt Q9C0B0, residues 30-357)
UniProt Q9C0B0, sequence (30-357, looked up): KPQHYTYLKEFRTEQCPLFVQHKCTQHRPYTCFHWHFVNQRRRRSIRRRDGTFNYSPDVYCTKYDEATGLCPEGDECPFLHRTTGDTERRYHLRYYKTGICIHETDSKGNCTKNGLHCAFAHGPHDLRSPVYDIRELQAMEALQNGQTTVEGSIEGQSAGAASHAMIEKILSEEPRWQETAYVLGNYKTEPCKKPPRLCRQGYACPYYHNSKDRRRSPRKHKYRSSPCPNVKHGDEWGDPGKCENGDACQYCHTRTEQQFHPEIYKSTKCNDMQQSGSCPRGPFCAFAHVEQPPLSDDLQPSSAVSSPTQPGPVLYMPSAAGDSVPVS
Notes: RNA with constant flanks, human-mouse chimeric sites, ends assumed
Strand	bound/input enrichment [ratio]
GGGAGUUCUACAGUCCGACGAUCUAAGUUAAGCUUUUAAUCUUUGUAAAUUCUUAACAUUUUUAUAUUGCACAUUUUAUGUUGUUUGGGUAAUUUGGUUCAUUAAGUACAUAGCUAAGGUAAUGAACAUCUUUUUCAGUAAUUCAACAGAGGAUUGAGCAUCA	0.55
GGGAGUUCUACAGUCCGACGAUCAAAGCCCAAGUAUUUUGAAAAAAUUCAAACAGAUUUAACAAGGGUAGCCAGCUUGGAGUCUAGCAACUUGCCAAUGUGUUUACCAAUCUGGGGGCUUGUUUUUCUUUUCUUCUUUCAAAUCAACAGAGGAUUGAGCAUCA	0.346
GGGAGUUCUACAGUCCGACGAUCACUCAGAGAUCCACCUCAAUUGAAGUGGGGAGUAAAGGUGUGGCCACUCAAUUCUCCUUGAUGGAUAUAUAUUUUUUUUAAUAUGAAUCUUCCUGUUCGUCCAGGGAAGAAAGAUUUGUUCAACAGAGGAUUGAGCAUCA	0.358
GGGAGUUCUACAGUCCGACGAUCGAGCGUCUUGCCCGCACUGGGAUCAUCGUGACCACUAGUGAGGCUGUCCUCCUACAGCUGGUAGCUGACAAAGACCACCCGAAGUUCAAGGAAAUUCAGAAUCUAAUUAAGGCGAGUGCCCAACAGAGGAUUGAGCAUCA	0.175
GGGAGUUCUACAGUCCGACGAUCGAUCCACAGUGGUCUGAGGAGCAACUCAUUGCUGCAAAAUUUUGCUUUGCUGGCCUUGUUAUAGGGCAGACUGAAGUGGACAUCAUGAGUCAUGCCACACAGGCUAUUUUUGAAAUUCUGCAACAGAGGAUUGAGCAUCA	0.15
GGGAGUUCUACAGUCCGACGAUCCAGCUGCAGACAGAGAAGGAUGAGAAGGAGCUGUAUAAGGUACAUUUGAAGAAUACAGAAAUAGAAAAUACGAAGCUUGUGUCAGAGAUACAGACUUUAAAGAAUUUAGAUGGGAACAAACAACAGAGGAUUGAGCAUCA	2.61
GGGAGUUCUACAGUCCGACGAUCAUCAAAUACUUUGGGGACAUCAUUAGUGUGGGACAGAGACUGUUGCAAGGAGCUCGGAUCUUAGGGAUUCCAGUUAUCAUAACGGAACAAUACCCUAAAGGUCUUGGCAGCACCGUUCAACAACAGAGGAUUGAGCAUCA	0.169
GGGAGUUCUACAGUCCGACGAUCCUCAGAGAUGUGGCAUAUCAAUAUGUGAAAAAGGGGGCUCGUAUAUUUGUGGAAGGGAAAGUGGACUAUGGCGAGUACAUGGAUAAAAACAAUGUGAGGCGACAAGCAACAACAAUCAUACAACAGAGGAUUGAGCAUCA	0.308

Series 2 — method: RNA Bind-n-Seq; form: RNA; sample: in vitro; tested at: 365 nM; relative to: no-protein control; direction: higher = stronger binding
Target: RNA binding protein fox-1 homolog 2, RRM domain, GST-SBP tag (RBFOX2, Homo sapiens, UniProt O43251-10, residues 100-194)
Notes: natural RNA segment, single round, ends assumed
Target sequence (chain): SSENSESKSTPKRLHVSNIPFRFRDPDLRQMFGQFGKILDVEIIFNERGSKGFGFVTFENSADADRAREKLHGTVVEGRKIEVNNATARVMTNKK
Strand	RBNS enrichment (R)
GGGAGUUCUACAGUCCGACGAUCUGUUUGAGGUGGAGCUGGUGUCCCGGGAGGAUGGGCUGCCCACAGGCUACCUGUUUGUGUGGCACAAGGACCCUCCUGCCAACCUGUUUGAAGACAUGGACCUCAACAAGUGGAAUUCUCGGGUGCCAA	0.272
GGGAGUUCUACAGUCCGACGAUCCAGCUGCCCCAUUCUUUUAACGUUGUAGGGCCUGCCCAUGGAGCGGACCCUCCUCUUUGGGCCUCGUGAGCUUUUUUGCUUAUCAUGUUCCAUUUCGUGCCGCUUUCCCCUGGAAUUCUCGGGUGCCAA	0.399
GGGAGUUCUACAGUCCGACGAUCCAAAUCAGUGUUAGUGACAAGCCCCGACCGUGGCGAUGUGCUGGAAAACACGGACCUUUUGGGUUAAAAGCUUUAACAUCUGUGAGGAAGAACUGGUCACAUGGGUUUGGUGGAAUUCUCGGGUGCCAA	0.603
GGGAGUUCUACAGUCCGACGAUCCAGCUGAAAAUGAAGGUAAUUAAAACCAUGGAGGCGAUCAGCGAGGUUCUCCAGGACCUUAGGUUUGAUGCGGAAUCUGCCGAGUGAUGGCGGCUCCCCAGGGAUGCGCCUGGAAUUCUCGGGUGCCAA	0.472
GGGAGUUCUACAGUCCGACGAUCGGAAGGUGACAUCUGUGUUUCGUUUUAGCUGAGGUUGGCAGAAACGUUCCCAAACUCCCCCAGCCCUGGACCCCAGCAGAUGAGGAAACGGCCCCAUUUACUGACCCCGCUGGAAUUCUCGGGUGCCAA	0.28
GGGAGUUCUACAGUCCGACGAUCACCAGGAAGGCUGUGUGGGUCUGGAGCCCACGUCCCACCUCCACACCCUUGGCUUGGGCCCAUGCCCAGCGCAGGCCUGAAGACCACCCUCCCGAGAGGAACCAGCCCGGUGGAAUUCUCGGGUGCCAA	0.324

Series 3 — method: protein binding microarray; form: double-stranded DNA, one strand shown; sample: in vitro; tested at: not given; relative to: not given; direction: higher = stronger binding
Target: Histone acetyltransferase KAT6A, winged helix 2, GST fusion (KAT6A, Homo sapiens, UniProt Q92794, residues 85-181)
Notes: 8-mer, flanks averaged, mean of 2 arrays, mostly near background
Residues (chain): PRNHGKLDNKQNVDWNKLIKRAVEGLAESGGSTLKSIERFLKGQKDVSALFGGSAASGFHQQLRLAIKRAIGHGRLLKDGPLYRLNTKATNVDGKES
Strand	E-score
GCCTTAAA	0.125
TCCTCTCA	-0.139
ATGCGCCG	0.048
GGACACAA	0.112
CTTCCACA	0.0795
CTGTGCCA	-0.104
CACGAGGG	0.111
AGATCGAC	0.00611
AGTGCATC	0.0071
ATACGACC	-0.141
AGCCATAC	-0.0949
GCAAAAGC	0.0519
AGCATCAT	-0.119
GTTCGCGA	0.188
CATAGAAC	-0.164
CAGTAACA	-0.0746
ACGGGGCT	-0.158
TATGTGCA	-0.191
CAACGATG	0.0254
AACCCTCG	0.0023
AGGGTTGG	0.055
ATACCCAT	-0.0709
ATCACATG	-0.159
CGCCCTCA	-0.0917

Series 4 — method: RNA Bind-n-Seq; form: RNA; sample: in vitro; tested at: 1 µM; notes: whole 134-nt RNA, ends assumed; with: 150 mM KCl; relative to: input library; direction: higher = stronger binding
Target: Ras GTPase-activating protein-binding protein 1, RRM domain (G3BP1, Homo sapiens, UniProt Q13283)
UniProt Q13283, sequence (whole entry, looked up): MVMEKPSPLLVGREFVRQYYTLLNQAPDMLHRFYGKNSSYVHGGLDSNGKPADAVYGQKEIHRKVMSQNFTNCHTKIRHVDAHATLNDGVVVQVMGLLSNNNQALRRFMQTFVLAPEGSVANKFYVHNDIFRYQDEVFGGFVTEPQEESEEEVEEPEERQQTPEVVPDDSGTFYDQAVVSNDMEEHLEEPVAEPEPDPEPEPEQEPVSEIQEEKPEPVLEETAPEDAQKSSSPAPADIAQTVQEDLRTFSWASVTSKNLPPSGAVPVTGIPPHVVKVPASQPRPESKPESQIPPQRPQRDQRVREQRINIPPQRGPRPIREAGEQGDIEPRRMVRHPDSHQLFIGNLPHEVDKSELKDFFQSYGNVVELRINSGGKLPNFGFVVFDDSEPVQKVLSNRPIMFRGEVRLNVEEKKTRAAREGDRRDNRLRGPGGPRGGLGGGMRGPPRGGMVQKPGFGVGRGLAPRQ
Strand	log2 enrichment
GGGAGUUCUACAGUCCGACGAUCUUUCACAGAGAAGCAAAUGCUGGCACAAGGAUACCCUGCUUACACGACAUCGUGCGCCUGGCUGGGGUACUCAGAUGACACGUUGAAGCAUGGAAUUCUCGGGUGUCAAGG	-0.112
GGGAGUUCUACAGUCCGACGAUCAAGUCCUGUGCUACACAUCGUAUGUACCGAAUCAAACCCAAAUUUUUAAACCCAAAAAAGUAUUAUGUUACGCCGUUCGGAUCUGCACUUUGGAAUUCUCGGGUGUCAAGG	-0.493
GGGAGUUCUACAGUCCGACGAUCAAGUCCUGUGCUACACAUCGUAUGUACCGAAUCGGUUUUUGGAAAGGAAAAAAAGGAAAGUAUUAUGUUACGCCGUUCGGAUCUGCACUUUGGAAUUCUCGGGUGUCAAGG	-0.0731
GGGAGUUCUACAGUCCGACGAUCUCCUCAAGUCCUGUGCUACACAUCGUAUGUACCGAAUCGGGCGGCGGCGGGGAAAGUAUUAUGUUACGCCGUUCGGAUCUGCACUUCCAGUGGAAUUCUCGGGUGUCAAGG	0.0251
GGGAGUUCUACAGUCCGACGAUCUGGGAGGUGGAUUUUGUUUAUUUUUUUAGCUCAUUUCCAGGGGUCGGAAUUUUUUUUUAAUAUGUGUCAUGAAUAAAGUUGUUUUUGAAAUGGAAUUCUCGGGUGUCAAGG	1.25
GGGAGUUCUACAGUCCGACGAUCUGGCCCUGGUGGCAUGCGGGGAGGAAGAGGUGGCCUCAUGGAUCGUGGUGGUCCCGGUGGAAUGUUCAGAGGUGGCCGGGGUGGAGACAGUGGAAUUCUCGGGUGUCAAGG	1.41
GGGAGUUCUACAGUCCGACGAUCCUGUGCUACACAUCGUAUGUACCGAAUCGGCCCCCCCGGGGCCCCCCCGGGCCCCCCCGGGAAAGUAUUAUGUUACGCCGUUCGGAUCUGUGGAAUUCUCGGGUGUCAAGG	-0.544
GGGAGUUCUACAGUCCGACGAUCUUCAUUCCCAAGGGAGGCCAUGUCUGGAGAUAGACCUUGAAUUUAAUAAAUUUUAGGCACUAUACCAUUUCAGUGGAGAAAAUUGUUGGGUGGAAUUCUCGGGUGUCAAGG	-0.488
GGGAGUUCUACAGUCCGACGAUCUCCUGUGCUACACAUCGUAUGUACCGAAUCGGGAAAAAAGGGGAAAAAAGGAAAAAAGGAAAGUAUUAUGUUACGCCGUUCGGAUCUGCAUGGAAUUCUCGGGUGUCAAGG	-0.0327
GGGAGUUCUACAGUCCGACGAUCAGUCCUGUGCUACACAUCGUAUGUACCGAAUCGGGGUUUGGGGAGGGGAAAAAGGGGAAAGUAUUAUGUUACGCCGUUCGGAUCUGCACUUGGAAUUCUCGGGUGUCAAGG	0.991
